Measured values pooled from the literature.
A part holds a random share of what one study measured. Values joined by “and” are separate records of one study, mostly repeats; a detail may differ. Changes are numbered by the printed parent chain.

Block 1
Target: CCNB2, cyclin fold, Cln2 fusion (human)
Technique: yeast growth competition, sequencing
Medium: yeast
Setting: weak parent motif
Reference: not given
Direction: higher = stronger binding
Quantity: normalised enrichment score
Starting sequence: CDC6 docking peptide (human); TLKGRRLVFDNQL
N11L: 0.066
T1E: 0.0163
Q12M: 0.107
T1Q: -0.109
L13A: 0.308
G4H: 0.319
G4Q: 0.278
L2A: -0.0268
R6C: -0.103
G4D: 0.226
L13R: 0.31
K3W: -0.0391
R5D: -0.699
R5I: -0.341
Q12R: 0.424
V8Y: 0.306
R6P: -0.921
G4W: -0.162
F9P: 0.336
L7P: 0.0358

Block 2
Target: XBP1, bZIP domain (human)
Technique: DHFR protein complementation
Medium: yeast
Setting: single substitutions, most at no-binding floor
Reference: wild-type JUN-FOS pair
Direction: higher = stronger binding
Quantity: binding fitness
Starting sequence: JUN, bZIP domain (human); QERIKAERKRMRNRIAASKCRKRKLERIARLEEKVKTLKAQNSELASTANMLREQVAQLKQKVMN; partner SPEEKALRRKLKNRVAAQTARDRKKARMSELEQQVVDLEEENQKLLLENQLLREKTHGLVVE
T48R: -0.662 natural log
I28C: -1.42 natural log
R30S: -0.49 natural log
A46D: -1.44 natural log
E32S: -1.22 natural log
A49M: -1.29 natural log
R30C: -0.635 natural log
K39M: -1.26 natural log
S43D: -0.702 natural log
Q41I: -0.592 natural log
T37G: -1.1 natural log
S47T: -0.66 natural log
E33C: -1.29 natural log
S47N: -0.554 natural log
Q55W: -1.16 natural log

Block 3
Target: Interferon regulatory factor 7, full length, phosphomimetic (IRF7, Homo sapiens, UniProt Q92985, residues 1-503, S101K/S471D/S472D/S475D/S476D/S477D/S483D/S484D/S487D)
Technique: protein-binding microarray
Form: double-stranded DNA, one strand shown
Medium: in vitro
Concentration: 250 nM
Setting: 60-bp whole probe
Together with: salmon DNA 0.4 mg/ml
Reference: random background probes
Direction: higher = stronger binding
Quantity: log fluorescence
All sequences stand within: GCCTAGCAC … GTCTTGATTCGCTTGACGCTGCTG
Residues (chain): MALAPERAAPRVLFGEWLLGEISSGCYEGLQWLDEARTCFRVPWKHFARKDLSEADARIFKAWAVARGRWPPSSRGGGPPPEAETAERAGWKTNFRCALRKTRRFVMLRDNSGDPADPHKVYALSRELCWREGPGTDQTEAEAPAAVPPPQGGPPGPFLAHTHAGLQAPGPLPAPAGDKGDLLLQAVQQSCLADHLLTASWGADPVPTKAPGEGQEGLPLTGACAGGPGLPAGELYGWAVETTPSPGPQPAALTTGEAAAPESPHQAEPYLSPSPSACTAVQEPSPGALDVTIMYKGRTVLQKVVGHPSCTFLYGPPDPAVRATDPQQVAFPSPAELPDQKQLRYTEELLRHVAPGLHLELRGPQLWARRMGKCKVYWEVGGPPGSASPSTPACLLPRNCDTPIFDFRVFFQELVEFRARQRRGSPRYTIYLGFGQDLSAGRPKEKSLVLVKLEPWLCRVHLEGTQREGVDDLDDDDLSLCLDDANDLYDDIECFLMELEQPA
TTAGATCTCAGTCTCGATTCGTGCTAG: 4.56 z-score
GATGATTTCGGGACTGGAGACGTGCTA: -0.212 z-score
TTAGGAATCGACTTTCGGTTAGTGCTA: 2.35 z-score
TTGGGTTTCGGGACTGGGTTAGTGCTA: 3.16 z-score
GACGGTTTCCTTCTCCTGAAGTGCTAG: 2.98 z-score
GAAGGTCTCGGTTTCGGGACGTGCTAG: 8.31 z-score
TTAGATATCGGGTATAGATTAGTGCTA: -0.0025 z-score
GACGATTTCAGTTCGGAGACGTGCTAG: 0.154 z-score
TTAGATATCGGGTGTCGATTAGTGCTA: -0.111 z-score
TCATTTCTTTACTTCACACTGTGCTAG: 1.95 z-score
GAGTGTTTCTTCTGCTGACAGTGCTAG: 0.297 z-score
TTAGGTATCCTTTTCGTTTAGTGCTAG: 2.7 z-score
GATGAACTGAGACTGGAGACGTGCTAG: -0.279 z-score
GACGGGCTGGGTTTCGGGACGTGCTAG: 1.21 z-score
TTAGAACTGGGGACTGGATTCGTGCTA: -0.281 z-score
GACGATCTCAGACTGGTGACGTGCTAG: -0.288 z-score
GACGATATCAGAATCGAGACGTGCTAG: -0.0348 z-score
TTAGGTCTCCTTACCCTTTAGTGCTAG: 0.0387 z-score
AACTCTCTAATTTTGAGACTGTGCTAG: 0.178 z-score
TTATATATCAGTATCGATTAGTGCTAG: 1.26 z-score
TTAGAACTGGGGTTCCGATTAGTGCTA: 0.18 z-score
TCATGTTTTTCATTGTTACTGTGCTAG: 1.32 z-score
TCATTTTTATTTATAAAACTGTGCTAG: 0.895 z-score
TCAGTCCTCACTTCCTTCTGGTGCTAG: 0.962 z-score
TTAGATCACAGTCTCGATTAGTGCTAG: 1.33 z-score

Block 4
Target: RING finger protein unkempt homolog, zinc fingers 1-6, GST-SBP tag (UNK, Homo sapiens, UniProt Q9C0B0, residues 30-357)
Sequence of UniProt Q9C0B0 (30-357, looked up): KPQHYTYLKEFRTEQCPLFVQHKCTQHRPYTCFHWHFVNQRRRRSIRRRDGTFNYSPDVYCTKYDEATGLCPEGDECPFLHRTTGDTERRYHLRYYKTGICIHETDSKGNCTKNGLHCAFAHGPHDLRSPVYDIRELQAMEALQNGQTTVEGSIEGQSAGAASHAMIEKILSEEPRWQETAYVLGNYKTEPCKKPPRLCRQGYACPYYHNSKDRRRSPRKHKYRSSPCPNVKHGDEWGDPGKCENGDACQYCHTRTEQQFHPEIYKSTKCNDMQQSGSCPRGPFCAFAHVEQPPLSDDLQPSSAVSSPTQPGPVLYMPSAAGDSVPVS
Technique: RNA Bind-n-Seq
Form: RNA
Medium: in vitro
Concentration: not given
Setting: RNA with constant flanks, human and mouse sites, ends assumed
Reference: input RNA pool
Direction: higher = stronger binding
Quantity: bound/input enrichment
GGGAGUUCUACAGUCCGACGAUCCUGUGGAACACCAUGGUCAUUGGAGGCUAUGCUGACGGAGAAAGCUUCCUCGGUUAUGUGGACAUGCUUGGUGUAGCUUAUGAAGCCCCUUCACUGGCCACUGGUUAUGGUGCAUACUUGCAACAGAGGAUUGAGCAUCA: 0.129 ratio
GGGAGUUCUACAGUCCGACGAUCAAAAGAGUGGUAAUUUUAUAAAUGCUUAUUUAUGUUAUAAAAUGGAGAUCAGAAAAAAAUUCUUUUUGCACUUUGGCCUAUCCAGUAUCUUAUUUAUUCUCUAGAUAAGCUAGGAUAUUACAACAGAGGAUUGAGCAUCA: 0.633 ratio
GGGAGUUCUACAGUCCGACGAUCUGCCAUUUGGUUCCAAGUAGGUGCAGGACAAAAUGGAACUGGGUUCUACAUGCUGGGUUGACUAGGUUACACAUUUUAGCCUAUGAAGUUAGUGGCCUAUAAAACUUAAUCCUUAACGUUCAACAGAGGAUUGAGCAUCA: 0.194 ratio
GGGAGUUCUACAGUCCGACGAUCGCUGACGAACAUCGGCUCUUGUGUCCCUUUGAACGAGUAGCUUGCUUAAAUAGAAACUUUGGAUGUCCAUUUACCCUGGCACGAAAUAAAGUUGCUGAACAUCUAGAAAUGUGUCCUGCACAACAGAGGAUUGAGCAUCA: 0.818 ratio
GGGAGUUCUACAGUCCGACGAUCUUGAUCCUAGAAAGAAAAAAUAAUUUUUCAUUUUAGAUCUUGAUUGAAUUUAAGAUGUAUUUAUAUGCCUACAAAAGGUCUGUCUUGUAACUGUUGUAUAAAAUAAACCUAAUCUAUGGUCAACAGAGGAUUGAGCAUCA: 0.214 ratio
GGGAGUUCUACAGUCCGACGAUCACUUUUGGACUUGAUCAAUUGAAAACCAGAGAAGCCAUUGCCAUGCUCCACAAAGAUGGUAUAGAAUUUGCUUUUAAGGAGCCUAAUCCACAAGGGGAGAGCCAUCCACCUUUAAACUUGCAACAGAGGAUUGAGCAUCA: 0.468 ratio
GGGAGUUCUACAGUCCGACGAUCAGAACACUUCAAGUUGCGUUAGACAUUUCUUACCGAGCCCCAGGCCUGGCCGCGGUAACUGACUUUUACAUGGGAUUCUUUAACUAUUUGUACUUUUCAUGCCAGAAAAUAAAAAGUUCACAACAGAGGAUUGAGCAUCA: 0.636 ratio
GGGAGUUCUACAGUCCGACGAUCAUGGACGUCACCGAGGAUGAAGAGGAAGAAAUCAAACUGGAGAUAAAUAUGCUGAAGAAGUAUUCUCAUCAUCGAAAUAUUGCCACGUACUAUGGUGCUUUCAUUAAGAAGAGCCCUCCACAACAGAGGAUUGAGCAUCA: 0.316 ratio
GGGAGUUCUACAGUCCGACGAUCGGACUUGAACAACUUACAAAGUCUCCGGUGGAAUUUGUAGAAUACAACAAGAUGCAACUUAGCAGGAUAUAUCCCAAGGGAACACGUGUGGAUUCAUCCAACUACAUGCCUCAACUCUUCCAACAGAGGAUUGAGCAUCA: 0.216 ratio
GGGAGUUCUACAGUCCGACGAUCAACAUUAGAAGACAGUGGGAAGAUGAUCCUCCAAAUGUACACAUUAUUGGAAAUCUACCUUUUAGUGUUUCAACUCCACUGAUUAUCAAGUGGCUUGAAAAUAUUUCUCUUAAAGAUGGCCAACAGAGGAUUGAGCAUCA: 3.38 ratio
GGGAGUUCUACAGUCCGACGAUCGACUGUUCAAGCAAAAAAGGUAACUAACUGCUUCAUCUCCUUUUGCGCUUAUUUGGAAAUUUUAGUUAUAGUGUUUAACUGGCAUGGAUUAAUAGAGUUGGAGUUUUAUUUUUAAGAAAACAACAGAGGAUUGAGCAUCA: 6.23 ratio

Single results of other studies
PhoQ, residues 284 288 289 292 302 303 SMMNNA
fold induction (PhoP, residues 12 14 15 18 19 LWHSL (Escherichia coli, UniProt P23836); Sort-seq, item: YFP reporter; E. coli; PhoQ-PhoP variant library, together with: 10 µM Mg2+; reference: high Mg2+ state, higher = stronger signaling): 12.9 and 17

A few entries again (block 3):
GACGATTTCAGTTCGGAGACGTGCTAG: 0.154 z-score
TTAGATCTCAGTCTCGATTCGTGCTAG: 4.56 z-score
GATGATTTCGGGACTGGAGACGTGCTA: -0.212 z-score
TTGGGTTTCGGGACTGGGTTAGTGCTA: 3.16 z-score
TTAGATCACAGTCTCGATTAGTGCTAG: 1.33 z-score
TTAGAACTGGGGACTGGATTCGTGCTA: -0.281 z-score
TCATTTCTTTACTTCACACTGTGCTAG: 1.95 z-score
GACGATCTCAGACTGGTGACGTGCTAG: -0.288 z-score
TTAGATATCGGGTATAGATTAGTGCTA: -0.0025 z-score
TTAGAACTGGGGTTCCGATTAGTGCTA: 0.18 z-score
TCATGTTTTTCATTGTTACTGTGCTAG: 1.32 z-score
